Published values of several laboratories.
Each numbered part is a random draw from the data of one study; scales do not carry over between parts. Substitutions count along the parent as printed.

Set 1
Target: CCNA1, cyclin fold, Cln2 fusion (human)
Method: yeast growth competition, sequencing
Matrix: yeast
Setting: weak parent motif
Relative to: not given
Direction: higher = stronger binding
Starting sequence: SLBP docking peptide (human); ARYKRKLLINDFG; partner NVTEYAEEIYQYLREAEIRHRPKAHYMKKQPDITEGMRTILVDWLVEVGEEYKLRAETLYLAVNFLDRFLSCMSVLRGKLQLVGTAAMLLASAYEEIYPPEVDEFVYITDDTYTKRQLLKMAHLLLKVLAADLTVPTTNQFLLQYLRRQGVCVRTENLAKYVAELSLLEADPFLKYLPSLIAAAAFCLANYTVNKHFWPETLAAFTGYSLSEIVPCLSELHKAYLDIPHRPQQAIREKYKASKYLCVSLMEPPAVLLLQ
`D11Q`: “normalised enrichment score” 0.341.
Under “normalised enrichment score”, `K6L` is recorded as 0.216.
`A1L` — result for “normalised enrichment score”: 0.282.
For `R2P`, “normalised enrichment score” read 0.67.
`L8Q`: “normalised enrichment score” 0.314.
Under “normalised enrichment score”, `I9T` is recorded as 0.357.
`G13Q` — result for “normalised enrichment score”: 0.251.
`Y3L`: “normalised enrichment score” 0.396.
`A1N` — result for “normalised enrichment score”: 0.348.
`F12K`: “normalised enrichment score” 0.0412.
`N10F` — result for “normalised enrichment score”: 0.31.
For `L7N`, “normalised enrichment score” read 0.466.
`K4D`: “normalised enrichment score” 0.193.
Under “normalised enrichment score”, `L8T` is recorded as 0.361.
Under “normalised enrichment score”, `K6Q` is recorded as 0.659.
Under “normalised enrichment score”, `F12P` is recorded as 0.377.
`Y3P`: “normalised enrichment score” 0.181.
`L7M`: “normalised enrichment score” 0.394.
`I9A`: “normalised enrichment score” 0.422.
`G13I`: “normalised enrichment score” 0.302.
`A1M`: “normalised enrichment score” 0.422.
Under “normalised enrichment score”, `F12G` is recorded as 0.385.
`L8G`: “normalised enrichment score” 0.291.
For `A1Q`, “normalised enrichment score” read 0.00704.
`R5Q`: “normalised enrichment score” 0.136.

Set 2
Target: ABI1, truncated, D143A, DHFR fusion (Arabidopsis thaliana)
Method: DHFR PCA, deep sequencing
Matrix: yeast
Setting: methotrexate growth selection, single substitutions
Added: (+)-ABA 0 µM
Relative to: wild-type fitted maximum
Direction: higher = stronger binding
Starting sequence: PYL1, truncated, DHFR fusion (Arabidopsis thaliana); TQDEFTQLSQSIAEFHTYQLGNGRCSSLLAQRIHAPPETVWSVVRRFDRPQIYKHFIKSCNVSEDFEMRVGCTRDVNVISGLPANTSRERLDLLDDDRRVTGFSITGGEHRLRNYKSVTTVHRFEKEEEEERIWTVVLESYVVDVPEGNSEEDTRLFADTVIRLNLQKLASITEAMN
For `E174N`, “relative binding score” read -3.21%.
Under “relative binding score”, `C25R` is recorded as -1.16%.
Under “relative binding score”, `G107T` is recorded as 1.33%.
Under “relative binding score”, `I57W` is recorded as 3.17%.
`Q167A` — result for “relative binding score”: 26.3%.
`L82A`: “relative binding score” 10.3%.
`R32N` — result for “relative binding score”: 4.24%.
`F47V`: “relative binding score” -1.24%.
`S140F` — result for “relative binding score”: -10%.
Under “relative binding score”, `V145G` is recorded as -4.18%.
`P50F`: “relative binding score” 3.99%.
Under “relative binding score”, `A158C` is recorded as 66.6%.
For `F56E`, “relative binding score” read 1.01%.
Under “relative binding score”, `G148Q` is recorded as 0.966%.
`T6V` — result for “relative binding score”: 42.1%.

Set 3
Target: RNA binding protein fox-1 homolog 2, RRM domain, GST-SBP tag (RBFOX2, Homo sapiens, UniProt O43251-10, residues 100-194)
Method: RNA Bind-n-Seq
Form: RNA
Matrix: in vitro
Concentration: 365 nM
Setting: natural RNA segment, single round, ends assumed
Relative to: no-protein control
Direction: higher = stronger binding
Shared flanks, not repeated: GGGAGUUCUACAGUCCGACGAUC … UGGAAUUCUCGGGUGCCAA
Target sequence (chain): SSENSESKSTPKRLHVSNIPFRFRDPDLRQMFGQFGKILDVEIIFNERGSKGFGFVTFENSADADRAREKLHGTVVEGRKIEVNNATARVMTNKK
`CCCUUUCUGUGCCAGCCUCGAUCGCCUUGUGCUUUGGUCUCUUUUUCUCCCCCCCGCCUGGAUCCUGCCUCGCGCGGGCCGUCCUGUUGCUGAGACUCGGGGUACCGUUC` — result for “RBNS enrichment (R)”: 0.558.
`AAUGACACUCAGAGAGGGACAGUGCAGUUUGACAUUCAGAUAACAGCAGCAUUGGCUGCUUUUGUUGGUAGCAUGGAUUCAUGUUUUCUCAGAGGAACUUUUCACUUGAA` — result for “RBNS enrichment (R)”: 1.87.
Under “RBNS enrichment (R)”, `UGUGGAGUGUAUUAGCAUUCAUCUCUCAUAGACAUCAUGUCACAAAAGACAAUGUUAGUAAACUACAGGGAAGCACUGGAAGGGUAAAGCUCAGGUUAAUACAAGCUGAU` is recorded as 0.258.
`UUGUUACAUCUGGGAUACAGUCUAACUCAUCUGACUUAAUAUGCAUUUAAAAAAAUGCCAUAACUAUUAAACACCUUGUUUACAGACAGAUGAAAUAAAUUUAUUCCAAC` — result for “RBNS enrichment (R)”: 0.299.
`ACCCAGCCCCUCAUCCACCUGGAAUUUGAGGAGGAGAAAUGAAAAAACAGUGUGUCACUGGUGUCACACUGGCAUCAUGGCACUGGCGUCAUGGCACUAAGCCACUCAGA`: “RBNS enrichment (R)” 0.2.
Under “RBNS enrichment (R)”, `UUGCUGAAUUGAACACUAUUGUGUCUUAAAUACUUGCACUAAAAAAGUGCACUGCAAGGCCAGAAAAUUUUACAAUCUUCUUUCUUUUAUGUUCUGUAGUGUGUUUACCC` is recorded as 0.494.
Under “RBNS enrichment (R)”, `GCCUCUCCUGAAGUAUCACUCUACUAAAUGGUUAACAAACCAAUACUUUUAAAAUUGUACCCAAACCAGGAAAUUCACAGAUGUACUGCAAUCAAACCUAAGCUGUUGCC` is recorded as 0.622.
`AAUUUUUAUUUCAGCUUUAAAGAUGGGUCAUAUAGCCAAACGGGCCAUAUAAUCCAACAUUGUUGAGAUGUCUUAGGACAUCUAAGGCAAAACUGGCACAUUUGUUCUGC` — result for “RBNS enrichment (R)”: 0.247.
`UUAUAUCAUGACAUACAAAUGGAUUUACGUAUUUGACUGAAAUGAAAGUUCCACUAAACGGUAUUUGCUCUUGUGAUAUGUGGCACAUUGUGAUAUUUUCUUAGUCUGUU`: “RBNS enrichment (R)” 0.608.
`UGGUCCUGCCUGUAUGCUGGUUCACAUCCAUCUUUUCAUCUGCACACUCUUUUUCUCGGCGAAUGCUUGGAACUGGGUGCUGAGUGCUGGAACUAGCCUUGUGUCUAUGA` — result for “RBNS enrichment (R)”: 0.342.
Under “RBNS enrichment (R)”, `GGUCUCCCUGUAGGAAAUGUGAAAAAAAGCACAAUAGAACCAGGCUAGGGGCUUUGUUCCUGCUUUUUGUUUUGUUUGGUUUUACUAUCAGAUGGAUGGAUUUGUGUUUG` is recorded as 0.451.
For `AUUUAGGAAUUCAAUUUUUGUUUCAGUGACCAAUGUCAAGUUGCAGGCUUUGUGUGUUGCAUAUUUAAUAUUUCUACUACCACCGUAUGUCAACUGGGUAAAGCCUUCCA`, “RBNS enrichment (R)” read 0.486.

Set 4
Target: Histone acetyltransferase KAT6A, both winged helices, GST fusion (KAT6A, Homo sapiens, UniProt Q92794, residues 1-181)
Method: protein binding microarray
Form: double-stranded DNA, one strand shown
Matrix: in vitro
Concentration: not given
Setting: 8-mer, flanks averaged, mean of 2 arrays, mostly near background
Relative to: not given
Direction: higher = stronger binding
Construct (chain): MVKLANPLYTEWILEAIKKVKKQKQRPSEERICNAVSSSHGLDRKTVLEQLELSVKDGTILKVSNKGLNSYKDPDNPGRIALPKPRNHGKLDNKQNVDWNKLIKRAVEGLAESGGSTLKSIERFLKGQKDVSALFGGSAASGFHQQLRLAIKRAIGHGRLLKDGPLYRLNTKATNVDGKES
The E-score of `ATGTACAT` is reported as -0.0135.
The E-score of `CGTTTAAG` is reported as 0.0668.
`CTCAATCC` gave an E-score of -0.0459.
With `GGGTACAA` the E-score was -0.105.
The E-score of `TACTCTAA` is reported as 0.00901.
With `AAGACGTG` the E-score was -0.043.
The E-score of `ACTCTAAT` is reported as -0.144.
`CTTACTCA` has an E-score of -0.109.
`TAGCCCTA` gave an E-score of -0.135.
With `CCCTAGAG` the E-score was -0.179.
`AAGACCCG` has an E-score of 0.0753.
With `AAAGCGCA` the E-score was 0.245.
For `GGAGCCGA`, the E-score was 0.0777.
`CGTTCTAA` gave an E-score of 0.0347.
The E-score of `GAGCGCAC` is reported as 0.167.
For `CTACAATA`, the E-score was 0.0178.
`AGAGATGC` has an E-score of -0.0852.
With `CTGCGGTA` the E-score was 0.144.
With `CGGCCGAC` the E-score was 0.348.
The E-score of `AAGGTAGG` is reported as -0.206.
`AGGATGAA` has an E-score of -0.253.
For `AGATAGAC`, the E-score was -0.151.
With `CGAATCAA` the E-score was 0.0246.
`ACTACATC` has an E-score of -0.128.

Set 5
Target: RING finger protein unkempt homolog, zinc fingers 1-6, GST-SBP tag (UNK, Homo sapiens, UniProt Q9C0B0, residues 30-357)
Sequence of UniProt Q9C0B0 (30-357, looked up): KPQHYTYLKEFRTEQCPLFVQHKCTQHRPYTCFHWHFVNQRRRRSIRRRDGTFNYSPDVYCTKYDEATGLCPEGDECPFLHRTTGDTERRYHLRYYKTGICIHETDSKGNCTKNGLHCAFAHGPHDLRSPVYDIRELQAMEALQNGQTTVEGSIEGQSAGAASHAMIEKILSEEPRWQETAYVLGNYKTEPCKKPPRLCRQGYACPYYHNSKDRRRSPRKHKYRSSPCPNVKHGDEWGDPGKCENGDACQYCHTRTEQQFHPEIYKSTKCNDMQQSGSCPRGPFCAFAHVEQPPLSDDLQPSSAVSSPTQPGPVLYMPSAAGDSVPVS
Method: RNA Bind-n-Seq
Form: RNA
Matrix: in vitro
Concentration: not given
Setting: RNA with constant flanks, human and mouse sites, ends assumed
Relative to: input RNA pool
Direction: higher = stronger binding
Shared flanks, not repeated: GGGAGUUCUACAGUCCGACGAUC … CAACAGAGGAUUGAGCAUCA
For `GGGGGAUUCUACAUCCAGGCAUCAAAGAACACUGUCUUACAUGGCUGCUAUUGAAGUAUAUGACCUUGUCUGAAAGCUGCAGUACCUAACAUCUCUGUUGUGUGCAUUCUACAUAUGCAU`, the bound/input enrichment was 0.22 ratio.
For `CCAGAGGAGAUGCUGUCUAUGUACUGUGCUACUCUUUGAUUCUACUUUCCAUUGACCUCACUAGUCCUCAUGUGAAGAAUAAAAUGUCAAAAAGAGAGUUUAUUCGAAAUACGCGCCGUG`, the bound/input enrichment was 0.109 ratio.
For `CCCAGCACUUUGAUAAAGACUGUGGAUUGGUUGCUGGUGUUUUCCUUGUUCUUUUUAAUUAGUUUCAUUAUGUAUGCUACCAUCCGCACUGAGAGUAUUCGGUGGCUGAUUCCAGGACAA`, the bound/input enrichment was 5.17 ratio.
`AAUAUCACUUCCAGGACCUGCCAGACGCAGUUCCCCCCAGAGGGUUGUGUUCUCAGUUUGUUCAUUGCUAAGUUCCUGUCUGACUUUAUUGUAACUUCUGAAAGGCUAGAUUUCCUCUCU` has a bound/input enrichment of 0.177 ratio.
For `ACAUUUUCCUCCUAAUAAAUUAUCCUUGUGAUGGGCGACAUGGCCAACAACUCAGUUGCGUAUAGCGGUGUGAAGAACUCUUUGAAAGAAGCUAACCAUGAUGGAGACUUUGGAAUUACG`, the bound/input enrichment was 0.648 ratio.
The bound/input enrichment of `GUCAUGCCGGGGAUAGUGGAGCUGCCCACUCUAGAGGAGCUGAAAGUAGAUGAGGUGAAAAUUAGUUCUGCUGUGCUUAAAGCUGCGGCCCAUCACUAUGGAGCUCAAUGUGAUAAGCCC` is reported as 5.59 ratio.
For `GGAGAGUAUAUGAGAGGCACAGGGUGUUUUUGCUGACACAACAGUGAAAGAGAAACAAGAACUUCCCUCGCUCAGUUACCAAGGCUCAGCAACCUGAGCAUGGAGCGGGUGUGAAGGGCC`, the bound/input enrichment was 0.172 ratio.
`GAAAAGAAUGUGCUGUUUUCACACCUUGAUGAUAACGAGAGAAGUGACAUUUUUGAUGCUAUGUUUCCAGUCUCCUUUAUUGCUGGAGAGACGGUUAUUCAGCAAGGUGAUGAAGGGGAU` gave a bound/input enrichment of 0.244 ratio.
`UGGCUUCAGGAUGUAGAGGGCCUGCAGGCUGGAGGACGUGUGCCAGUGUUAGACACACUCAUAGAACUUGUUACACGAGGCCGAUCUAUCCCCGUACAUCUGAAUUCUUUGCCAAGACUG` gave a bound/input enrichment of 0.177 ratio.
With `GUGACUCUUGUAUGUAAUCCUGUGGCUUAACUACUUCUCCCUCCUUGUCCAGCACUUUUCUAGCUCUCCCGUUCCCCAUCUCCAUUGCUCUGUACUCUUUUCUUUUUUCUUGUGCUGAGA` the bound/input enrichment was 1.01 ratio.
With `GGGAACCCUGCCUGUUCAGCCCAGGUGCAGCAUGUCUCGCCUUCCAUUUUCCCAGCUCAUUUAGCAAGUGUAUCAGCUCCAUUGUUACCCUCAGUGGAAAGUGUCCUAAGUCCAAAUAUA` the bound/input enrichment was 0.326 ratio.

A few entries again (set 2):
`P50F`: “relative binding score” 3.99%.
Under “relative binding score”, `C25R` is recorded as -1.16%.
Under “relative binding score”, `I57W` is recorded as 3.17%.
Under “relative binding score”, `V145G` is recorded as -4.18%.
For `E174N`, “relative binding score” read -3.21%.
`T6V` — result for “relative binding score”: 42.1%.
`Q167A` — result for “relative binding score”: 26.3%.
`F47V`: “relative binding score” -1.24%.
`L82A`: “relative binding score” 10.3%.
`S140F` — result for “relative binding score”: -10%.
